Published values gathered from unrelated publications.
A part holds a random share of what one study measured.

Set 1 — method: RNA Bind-n-Seq; form: RNA; medium: in vitro; concentration: 1 µM; setting: whole 134-nt RNA, ends assumed; with: 150 mM KCl; reference: input library; direction: higher = stronger binding; endpoint: log2 enrichment
Target: Ras GTPase-activating protein-binding protein 1, C-terminal RGG region (G3BP1, Homo sapiens, UniProt Q13283)
Sequence of UniProt Q13283 (whole entry, looked up): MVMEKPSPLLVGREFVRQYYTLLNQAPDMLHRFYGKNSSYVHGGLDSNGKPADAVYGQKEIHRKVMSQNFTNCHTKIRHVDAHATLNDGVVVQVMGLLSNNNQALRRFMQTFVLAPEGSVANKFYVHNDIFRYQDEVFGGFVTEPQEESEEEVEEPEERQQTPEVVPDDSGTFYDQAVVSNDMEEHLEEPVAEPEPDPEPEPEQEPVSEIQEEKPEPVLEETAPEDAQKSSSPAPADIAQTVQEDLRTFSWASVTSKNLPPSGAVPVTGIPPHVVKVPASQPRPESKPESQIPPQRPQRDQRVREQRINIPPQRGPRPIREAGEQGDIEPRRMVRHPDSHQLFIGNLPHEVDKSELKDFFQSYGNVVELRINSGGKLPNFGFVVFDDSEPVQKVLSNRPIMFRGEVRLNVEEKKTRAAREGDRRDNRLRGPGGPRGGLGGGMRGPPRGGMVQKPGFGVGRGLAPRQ
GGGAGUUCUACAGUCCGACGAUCAAGUCCUGUGCUACACAUCGUAUGUACCGAAUCGGGGUGGGGAAAAAGGGGUGGGGAAAGUAUUAUGUUACGCCGUUCGGAUCUGCACUUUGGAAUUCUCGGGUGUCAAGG: 1.92
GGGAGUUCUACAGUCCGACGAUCUUUGCAGGGAGUGGUACGGGUAUCACUUUCCGGAGCUGGUGAAGAUCAUCAACGACAAUGCCACAUACUGCCGUCUUGCCCAGUUUAUUGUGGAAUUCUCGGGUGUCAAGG: -1.18
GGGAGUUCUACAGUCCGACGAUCCUCAAGUCCUGUGCUACACAUCGUAUGUACCGAAUCGGCCGGGGCCGGCCGGGAAAGUAUUAUGUUACGCCGUUCGGAUCUGCACUUCCAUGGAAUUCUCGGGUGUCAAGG: -1.2
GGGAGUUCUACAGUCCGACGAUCAAGUCCUGUGCUACACAUCGUAUGUACCGAAUCGGUUUUGGUUUUGGGGUUUUGGGAAAGUAUUAUGUUACGCCGUUCGGAUCUGCACUUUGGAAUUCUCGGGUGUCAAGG: -1.51
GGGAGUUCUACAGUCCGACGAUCUCAAGUCCUGUGCUACACAUCGUAUGUACCGAAUCGGAGGAAAGGAAAAAAAGGAAAGUAUUAUGUUACGCCGUUCGGAUCUGCACUUCCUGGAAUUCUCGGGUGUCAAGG: -1.42
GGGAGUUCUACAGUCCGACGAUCACCAUGCAGGUGGGCAUCUUUGGGAAGUGGGGCAAGGGGGGGAUAGAAAGGGGGGUAACACUUUGGGAACAGGUGGUCCCAGGUCGUUUCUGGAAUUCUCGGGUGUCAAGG: -1.11
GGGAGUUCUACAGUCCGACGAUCUCCUGUGCUACACAUCGUAUGUACCGAAUCGGGGUUUUUUGGUUUUUUGGGUUUUUUGGGAAAGUAUUAUGUUACGCCGUUCGGAUCUGCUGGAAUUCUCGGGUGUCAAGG: -0.768
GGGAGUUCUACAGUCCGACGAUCGUCCUGUGCUACACAUCGUAUGUACCGAAUCGGGUUUUUGGGUUUUUGGGUUUUUGGGAAAGUAUUAUGUUACGCCGUUCGGAUCUGCACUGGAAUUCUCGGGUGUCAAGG: 0.129
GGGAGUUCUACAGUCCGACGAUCGUCCUGUGCUACACAUCGUAUGUACCGAAUCGGGGUGGGGUUUUUUUGGGGAAAGGGGAAAGUAUUAUGUUACGCCGUUCGGAUCUGCACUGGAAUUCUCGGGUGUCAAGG: 1.62
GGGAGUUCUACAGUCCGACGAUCGUGCUACACAUCGUAUGUACCGAAUCGGGGAAAAAAAGGGGUUUUUUUGGGGAAAAAAAGGGGAAAGUAUUAUGUUACGCCGUUCGGAUCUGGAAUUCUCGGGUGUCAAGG: 0.53
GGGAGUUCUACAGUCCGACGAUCUAACUUUAGAGGAGGAUCUGAUGGACAUGGCAGUGGACGUGGAUUUGGGGAUGGCUAUAAUGGGUAUGGAGGAGGACCUGGAGGUGGCAAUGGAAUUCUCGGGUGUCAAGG: -1.17
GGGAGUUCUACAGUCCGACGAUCAAGUCCUGUGCUACACAUCGUAUGUACCGAAUCGGUUUUGGGGUUUUGGGGUUUUGGAAAGUAUUAUGUUACGCCGUUCGGAUCUGCACUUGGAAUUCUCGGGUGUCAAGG: -0.647
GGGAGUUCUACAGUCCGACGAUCACCAUGCAGGUGGGCAUCUUAAAGAAGUGGGGCAAGGGGGGGAUAGGGAGGGGGGUAACACUUUGGGAACAGGUGGUCCCAGGUCGUUUCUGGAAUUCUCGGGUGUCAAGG: -1.03
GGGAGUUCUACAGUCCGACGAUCUUGGCUACAAUGCAGAGACACAGAAACUACUAUGCAAGAAUGGGGAAACGCUGCUAGGAGCCGUGAACUUCUUUGUCUCUAGCAUCAACAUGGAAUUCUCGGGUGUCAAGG: -1.21

Set 2 — method: RNA Bind-n-Seq; form: RNA; medium: in vitro; concentration: 365 nM; reference: no-protein control; direction: higher = stronger binding; endpoint: RBNS enrichment (R)
Target: RNA binding protein fox-1 homolog 2, RRM domain, GST-SBP tag (RBFOX2, Homo sapiens, UniProt O43251-10, residues 100-194)
Setting: natural RNA segment, single round, ends assumed
Target sequence (chain): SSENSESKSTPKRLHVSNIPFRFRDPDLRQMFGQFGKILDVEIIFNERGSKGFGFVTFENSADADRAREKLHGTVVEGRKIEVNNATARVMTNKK
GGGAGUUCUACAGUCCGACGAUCCGGGUCCAUGAGGAGCUUGAGGGCCAGAGUGUCAGGCCUGACCUCAGACACAAAGGCCCCUCGGCUGGGGGGCAGUGGGCAUGGAGCUGGCCUGCUAACAGCCCCCCGAUUGGAAUUCUCGGGUGCCAA: 0.531
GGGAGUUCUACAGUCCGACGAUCAGUAAUAUAAACUGUAUUAAUAAAAUCCAUUUACUGUGUAAUACACGAGUUUAAAAAUUAAGAGCGAUUAGCUGUUCACUUUGGUAACAGGUAGUUAAGUGUCACACAAGUGGAAUUCUCGGGUGCCAA: 0.339
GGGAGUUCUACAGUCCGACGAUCAAAUAUGACUGUUUUAGGGACUAGACCAUGUGCUUUUUUAACACUUAUAUAUAUAAUGGUCUAUUUGAAGAGCUCACUUCAACCUAACAGCUAGAUGUCUUUACAAACCUUGGAAUUCUCGGGUGCCAA: 0.436
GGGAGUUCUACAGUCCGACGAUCGCCCCUCCUCCGUAGUCCUCUCCCUCCGUACAUGCUCCACAGAAAGAAGACCUCUGCUGCCACCUCGGGCUGUGCACUUGGGAUACGGUUGGUUCUCACGCCAUGAGGGAUGGAAUUCUCGGGUGCCAA: 0.733
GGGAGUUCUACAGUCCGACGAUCCUCUUGCUCUCCAAUGGGGAGACCAUGUUUCCUAGAGUGUGAGCUGCCCCUCACCCCCUGAAAAGCUGACUCACUGUGAGUGACCUUGGGCAAGUCCCCAAACCUCCUUGUGGAAUUCUCGGGUGCCAA: 0.237
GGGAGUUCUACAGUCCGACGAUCCCUCCAAAGGUUGAGAGCAAGAAUUGUUUUUUUCUUGGAUAUCAAAGGGAUUAUCACAGCGCAAUCAUUGUCUACAACAACGUGUACACUCAAUGCCUGGGUUACAUAGGUGGAAUUCUCGGGUGCCAA: 0.301
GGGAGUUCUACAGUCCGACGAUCUGUGGGAGCCUUCAAUCCUCAGUGGCAUGGGAAACAGCUGAGUACUUGCCCCGUGACUUCAGUUUUCUAUAGGAAUUUUAUUAAAGAGUGUUUAAUUUUGUUGUCCUUCUUGGAAUUCUCGGGUGCCAA: 13
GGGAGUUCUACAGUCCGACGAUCUACUUUUUUCCUGUUGUGUUGAAUACUGGAGAAAUAGAAGGUUCAAGAUAGAGGCAGACCUGACUGUUUCUUGAGGGUCCAUCAGGCAUCUCCAGGAGCUGGCCAGUUAUUGGAAUUCUCGGGUGCCAA: 0.338
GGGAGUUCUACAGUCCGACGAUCUAGAUCCUGUUAACCGUGUCCUCUAAUUGUCUUUAUUUUAAUGCCAAAAGGAAGUGAUUAUGCAGCUGUGUGUAGAGUUUCAGAGCAAGUUCCUCAGCAGUGUAGAUGAAUGGAAUUCUCGGGUGCCAA: 0.495
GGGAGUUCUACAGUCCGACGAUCUCUAUAUAUCUAGCUAACUGACUACCUAUCAUCUACCUACCUACCUGCUGUUAAAUAAAGAAUUUCCUUGUCUGAUUUCCUUUCAAUAAAAGUUUUUCUUUGUUUCAGGUUGGAAUUCUCGGGUGCCAA: 0.442
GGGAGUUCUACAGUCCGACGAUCCCUCUGUCCUAAACCGUCCCCUCCUUCCCUCACCCCCAGCACAGGGGGAUUCUGAGCAGUGCCUCUUGUCUGAGGGACAUAUCAGUGACCUCGACGUUGCCUUUAGACUAUGGAAUUCUCGGGUGCCAA: 0.48
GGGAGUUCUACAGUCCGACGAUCGACUAUAUAUAGGGAUCACAAAGUGUCACAUGUUAGAAUGCUGACCUUCCACAUGGGGUUAUUGUGAGUCAUCAGAGCAUAUUUAUUAUAACUUAUUGUUCAUAUUCAUUUGGAAUUCUCGGGUGCCAA: 0.774

Set 3 — method: RNAcompete; form: RNA; medium: in vitro; concentration: 20 nM; setting: 7-mer, probes averaged, single round; reference: mean of 7-mers; direction: higher = stronger binding; endpoint: 7-mer Z-score
Target: PABPC1L2, full length, GST fusion (mouse, UniProt A0ABA7IW68)
Residues (chain): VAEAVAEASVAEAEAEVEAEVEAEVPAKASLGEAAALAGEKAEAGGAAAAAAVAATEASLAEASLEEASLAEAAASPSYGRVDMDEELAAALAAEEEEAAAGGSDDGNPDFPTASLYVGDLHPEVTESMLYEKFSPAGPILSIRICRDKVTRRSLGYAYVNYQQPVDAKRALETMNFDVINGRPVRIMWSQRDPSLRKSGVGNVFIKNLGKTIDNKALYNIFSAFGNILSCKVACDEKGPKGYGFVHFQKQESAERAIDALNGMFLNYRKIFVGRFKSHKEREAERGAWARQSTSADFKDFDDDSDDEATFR
CCGUUAU: -0.338
AGUGGCG: 0.187
CUCCAUA: -0.112
CCAUGUC: -0.229
AAAUUCC: 0.678
AUUCGCC: -0.324
ACCCCAC: -0.356
AUGCCCU: -0.289
CAUACAG: -0.05
UGUUCCU: -0.224
CAACUCG: -0.113
CGAUAAU: -0.115
GAGCGCC: -0.284
UUCAUGA: -0.112
UAUAGUU: -0.289
CGAUCAG: -0.0736
CGCACGA: -0.242
UUACAGG: -0.0663

Set 4 — method: protein-binding microarray; form: double-stranded DNA, one strand shown; medium: in vitro; concentration: 250 nM; setting: 60-bp whole probe; with: salmon DNA 0.4 mg/ml; reference: random background probes; direction: higher = stronger binding; endpoint: log fluorescence; all sequences stand within: GCCTAGCAC … GTCTTGATTCGCTTGACGCTGCTG
Target: Interferon regulatory factor 7, full length, phosphomimetic (IRF7, Homo sapiens, UniProt Q92985, residues 1-503, S101K/S471D/S472D/S475D/S476D/S477D/S483D/S484D/S487D)
Sequence of UniProt Q92985 (whole entry, unmodified, looked up): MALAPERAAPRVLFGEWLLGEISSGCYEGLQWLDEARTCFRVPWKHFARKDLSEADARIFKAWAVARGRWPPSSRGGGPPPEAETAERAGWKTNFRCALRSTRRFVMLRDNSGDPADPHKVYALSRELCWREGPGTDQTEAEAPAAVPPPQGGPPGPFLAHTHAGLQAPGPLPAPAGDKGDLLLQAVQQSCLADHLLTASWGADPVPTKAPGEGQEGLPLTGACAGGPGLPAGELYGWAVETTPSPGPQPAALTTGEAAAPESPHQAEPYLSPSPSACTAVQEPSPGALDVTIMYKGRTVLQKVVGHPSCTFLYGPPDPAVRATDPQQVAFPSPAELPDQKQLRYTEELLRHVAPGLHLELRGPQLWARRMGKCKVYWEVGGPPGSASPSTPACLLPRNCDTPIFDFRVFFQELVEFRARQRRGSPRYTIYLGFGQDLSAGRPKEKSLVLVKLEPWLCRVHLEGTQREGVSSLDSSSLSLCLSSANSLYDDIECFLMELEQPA
AGAGAATGTGGAGAAATAGGGTGCTAG: -0.463 z-score
TTAGGTTTCGGAACTGGGTTAGTGCTA: 6.17 z-score
GACGGACTGCGTTTCGGGACGTGCTAG: 0.183 z-score
TTAGATATCGGCTATCGATTAGTGCTA: 0.0546 z-score
GACGATCTCAGGCTCGAGACGTGCTAG: 0.0823 z-score
TTAGGACTGCTTTTCATTTAGTGCTAG: 1.23 z-score
TTAGATTTCAGTCTCCATTAGTGCTAG: 0.821 z-score
CTATTTTTCACCTGCACTCAGTGCTAG: 1.53 z-score
ATATATATATATACAGATATGTGCTAG: 3.38 z-score
TTAGATTTCGGGACTGGAGTAGTGCTA: 0.222 z-score
GACGGTATCGGCTTTCGGGACGTGCTA: 0.24 z-score
ACCACTTTTATTTTCAGTATGTGCTAG: 0.841 z-score
TCCTATGTCATTTACATTTTGTGCTAG: 0.482 z-score
ACTTCTCCATTTTTCTAGTCGTGCTAG: 2.04 z-score
GACGGTTTTGGTTTCGGGACGTGCTAG: 7.18 z-score
TTAGAACTGAGTATCGATGAGTGCTAG: -0.167 z-score
GACGGTATCGGGCCTGGGGACGTGCTA: -0.442 z-score
GACGGTTTCGGTTCCGGGTCGTGCTAG: 12.8 z-score
AGTGTTTGCCCTATTTAAGAGTGCTAG: 1.15 z-score
GACGGACTGGGGATCGGGACGTGCTAG: -0.48 z-score
TTAGGGATCCTACTGCTTTAGTGCTAG: -0.622 z-score
GAGCAGAGGCTGATGTATGTGTGCTAG: -1.26 z-score
GACGGTTTCCTACTGCTAACGTGCTAG: 1.53 z-score
TTACGTATCGACTTTCGGTTAGTGCTA: 1.96 z-score

Set 5 — method: universal PBM; form: double-stranded DNA, one strand shown; medium: in vitro; concentration: 600 nM; direction: higher = stronger binding; endpoint: E-score
Target: Sal-like protein 4, full length isoform A (SALL4, Homo sapiens, UniProt Q9UJQ4, residues 1-1053)
Sequence of UniProt Q9UJQ4 (whole entry, looked up): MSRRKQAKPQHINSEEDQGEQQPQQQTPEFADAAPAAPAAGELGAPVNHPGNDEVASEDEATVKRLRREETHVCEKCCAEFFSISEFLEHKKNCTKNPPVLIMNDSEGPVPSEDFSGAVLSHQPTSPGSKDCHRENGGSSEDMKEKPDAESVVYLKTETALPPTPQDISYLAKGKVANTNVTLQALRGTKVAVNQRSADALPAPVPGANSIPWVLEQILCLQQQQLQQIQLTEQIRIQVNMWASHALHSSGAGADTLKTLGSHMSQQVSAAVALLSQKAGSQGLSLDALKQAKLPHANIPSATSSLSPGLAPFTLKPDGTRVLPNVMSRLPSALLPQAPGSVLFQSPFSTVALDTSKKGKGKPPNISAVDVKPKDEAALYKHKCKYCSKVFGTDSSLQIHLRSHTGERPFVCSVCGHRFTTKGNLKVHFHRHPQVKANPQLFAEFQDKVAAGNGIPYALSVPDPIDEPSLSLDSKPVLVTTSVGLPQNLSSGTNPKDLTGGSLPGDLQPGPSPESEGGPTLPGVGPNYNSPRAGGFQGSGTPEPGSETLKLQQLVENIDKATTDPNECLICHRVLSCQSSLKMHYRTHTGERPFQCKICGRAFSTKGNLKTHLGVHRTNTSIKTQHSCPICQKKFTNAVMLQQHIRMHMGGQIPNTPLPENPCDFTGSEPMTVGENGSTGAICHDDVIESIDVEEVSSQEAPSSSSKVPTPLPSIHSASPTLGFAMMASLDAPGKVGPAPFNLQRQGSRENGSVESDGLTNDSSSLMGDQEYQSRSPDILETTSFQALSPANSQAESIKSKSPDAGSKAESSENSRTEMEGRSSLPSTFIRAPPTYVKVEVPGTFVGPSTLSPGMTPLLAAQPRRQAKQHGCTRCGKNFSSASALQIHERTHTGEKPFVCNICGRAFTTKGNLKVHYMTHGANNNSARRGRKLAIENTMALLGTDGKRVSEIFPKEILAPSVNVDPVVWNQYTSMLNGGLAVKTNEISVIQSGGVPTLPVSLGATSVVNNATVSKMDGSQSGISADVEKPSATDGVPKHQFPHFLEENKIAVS
Setting: 8-mer, flanks averaged, mean of replicates
CAACCAGC: -0.269
ATAGGAGC: 0.149
CCCTCAGA: -0.186
ACTTTTGA: 0.185
AGCCATAC: -0.097
AGGGGCTA: -0.0783
CAACTTGG: -0.14
ATCTCTTG: -0.0283
CCCAAGCC: -0.387
CATCGTAA: 0.149
CAAATTCA: 0.125
CCAAATAC: -0.0287
ACAACTTC: 0.107
CATACCAG: -0.0541
AAGGAATG: 0.148
ATATCGTA: 0.248
CGTAACTC: -0.0997
CGAATCGA: 0.142
ATCTTACC: 0.191
CATGCCCG: -0.196
ACGCTTCC: -0.156
ACGGGCAC: -0.236
GAAGCAAC: -0.0982
AACGAACT: 0.0532
TCAGGGCA: -0.0871

Repeated from above (set 4):
GACGGTATCGGCTTTCGGGACGTGCTA: 0.24 z-score
GACGGACTGGGGATCGGGACGTGCTAG: -0.48 z-score
AGTGTTTGCCCTATTTAAGAGTGCTAG: 1.15 z-score
TTAGATTTCAGTCTCCATTAGTGCTAG: 0.821 z-score
ATATATATATATACAGATATGTGCTAG: 3.38 z-score
GACGGTTTTGGTTTCGGGACGTGCTAG: 7.18 z-score
TTAGATTTCGGGACTGGAGTAGTGCTA: 0.222 z-score
TTAGGTTTCGGAACTGGGTTAGTGCTA: 6.17 z-score
